Published values gathered from unrelated publications.
Every numbered part comes from another study and shows a few of its results, in no order.

Sample 1
Target: Interferon regulatory factor 5, full length, phosphomimetic (IRF5, Homo sapiens, UniProt Q13568-2, residues 1-514, S451D/S453D/S456D/S462D)
Technique: protein-binding microarray
Molecule type: double-stranded DNA, one strand shown
Sample: in vitro
Concentration: 940 nM top
Notes: 60-bp whole probe
Together with: salmon DNA 0.4 mg/ml
Reference: random background probes
Direction: higher = stronger binding
Constant ends, left off below: GCCTAGCAC … GTCTTGATTCGCTTGACGCTGCTG
`TTAGGACTCGGGACTGGGTTAGTGCTA` — result for “fitted relative affinity”: -0.593 z-score.
For `TTACGTCTCCTTATCCTTTAGTGCTAG`, “fitted relative affinity” read 1.56 z-score.
`TCAAAATTGTCTCTGTCACTGTGCTAG`: “fitted relative affinity” 0.884 z-score.
`GACGGTTTCGGTTCCAGGACGTGCTAG`: “fitted relative affinity” 12.1 z-score.
`TTTACTTTCTACGTCTGATTGTGCTAG`: “fitted relative affinity” 2.7 z-score.
`TTAGGACTGAGACTGGGTTAGTGCTAG` — result for “fitted relative affinity”: -0.56 z-score.
`GACGGACTGGGTTTCGGGGCGTGCTAG` — result for “fitted relative affinity”: 2.3 z-score.
`CTAAAACTCTTTATTTAAGCGTGCTAG`: “fitted relative affinity” 0.162 z-score.

Sample 2
Target: Hepatocyte nuclear factor 3-alpha (Foxa1, Mus musculus, UniProt P35582, residues 1-468, full length assumed)
UniProt P35582, sequence (whole entry, looked up): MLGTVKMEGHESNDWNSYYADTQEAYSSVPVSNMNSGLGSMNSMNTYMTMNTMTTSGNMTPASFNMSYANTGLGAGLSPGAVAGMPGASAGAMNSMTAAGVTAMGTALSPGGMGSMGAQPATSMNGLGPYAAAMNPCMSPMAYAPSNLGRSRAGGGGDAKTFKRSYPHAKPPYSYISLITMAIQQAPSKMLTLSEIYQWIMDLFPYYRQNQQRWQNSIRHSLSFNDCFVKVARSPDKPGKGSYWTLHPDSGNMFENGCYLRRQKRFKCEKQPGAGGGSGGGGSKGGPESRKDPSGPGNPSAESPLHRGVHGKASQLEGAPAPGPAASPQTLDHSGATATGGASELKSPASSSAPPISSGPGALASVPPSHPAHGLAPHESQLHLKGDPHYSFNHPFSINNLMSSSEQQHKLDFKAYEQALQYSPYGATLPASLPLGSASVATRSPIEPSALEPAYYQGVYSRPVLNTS
Technique: EMSA with sequencing
Molecule type: double-stranded DNA, one strand shown
Sample: in vitro
Concentration: 10 and 20 nM
Notes: whole designed probe, mean of two concentrations, ends assumed
Reference: negative control set to 0
Direction: higher = stronger binding
Constant ends, left off below: GTGAGCGGTGCCCATTGATGGGGAAC … TTTCACTGGGATCGTGGGGAC
Under “normalised bound fraction”, `TGTGCAATGAAAACACTTCACCATAAAAGTTCACATTTTATTTTAAGTAAGAGAAATAATAGCAATACTCAGGGCCATTTTCCCAACTGCTTGCTGTTTACATTGCAATAGCATTGCACTTTTGTTAAAAATATAAATGTCATATTCCTAAATATTTTCTCCAGATGTTGTCAATCTTATCACTATTTGACAC` is recorded as 0.289 ratio.
Under “normalised bound fraction”, `TAACCGGAGCGTGCACACCCGCCTGCGAGGCTGACCCGAGCGCGTCCCACCCAAGGTCGCCCAGCCCGGCCGGCGTTTACTTTTCAAAGGTCGTGTGTACACAGTCTGAGCCGGAGCTGCCCCTTCACTTCTGGAGCCTCGCCCAACTTCTCACCCTCGGCTCGCCCGCCGGCGCAGCCCCTGGGAGTTCCGT` is recorded as 0.221 ratio.
Under “normalised bound fraction”, `ACAAAAATTCTTGAGCCATTTCCAGATACCGAATCTGACTCAGTGTTGGCAAAACCTACAAAATGAGTGACCAAGAAGGATAAACAAGTTTAGGTAAACACTCTATAGACTGATTCATGATTTAAGTACATCAGTTAGCATTTAGCTTCATTTACCATCGTGTTTTAATGTCATTAAGAATGTAACTTCTTAG` is recorded as 0.266 ratio.
For `TTGCATAAAGATTTATAGTTTAAGGTGGAGGGAGGCAGAGTTCTGGTTGGCACCAAGTAACCCAGCTGTGGTGAAAATGGGACTAAAGGAAAGTAATCTAGGAAAGACTGACAAATGCACACTGTATTTTATAGAAAGCCTATGTCTGTGACTCTAGTGGTTTTAGTGAATCTGGAATACTTTATAATTCAAT`, “normalised bound fraction” read -0.0074 ratio.
`TATTGGCATAAGGTTTATAATAGGATCTTGATGAACAGAAATACTGTACACTATTCTTAATTGTAATGTTCATGTCAACGGAGTGCATTAAGAGTAAATATTAGCTAGAAACATGGTAACTTGTTCCTCTACATGAAACACAAACAGGACAGAGATGGAAATCACTGGTCATAGCAAAAGGACCAAACTTTAG`: “normalised bound fraction” 0.281 ratio.
For `ACTGTAGTGACTCATGTCCAGCCCCAGTGCGAGTGTGTTCCTCTCTAAAGAAAACCCAGTGTGTGTGTTCTCTCTAAAGAAAATGTATTACTAAGTAATCTAAAAAAGCTACTAAGCTTAAAGTTACCAAAACAAGTTCCAGATGAGCAGGGCCCAGAGGCATTTTCTGAAGAAGAGCCGTGCCCTGCCTTAT`, “normalised bound fraction” read -0.00773 ratio.

Sample 3
Target: Prothrombin, mature alpha-thrombin (F2, Homo sapiens, UniProt P00734)
Technique: aptamer microarray, sandwich
Molecule type: DNA with 2'F-ANA
Sample: in vitro
Concentration: 200 nM
Notes: whole 15-mer aptamer, many near background
Together with: Cy3 exosite-II aptamer, 400 nM
Direction: higher = stronger binding
Strand: GGTTGGTGTGGTTGG
`2'F-ANA at 2 4 6 7 8 9 10 11 12 14`: “mean fluorescence intensity” 59.1 a.u.
For `2'F-ANA at 3 4 6 7 9 13 15`, “mean fluorescence intensity” read 368 a.u.
Under “mean fluorescence intensity”, `2'F-ANA at 1 2 3 4 5 6 8 10 11 12 13 15` is recorded as 56.9 a.u.
Under “mean fluorescence intensity”, `2'F-ANA at 2 9 12 14` is recorded as 182 a.u.
`2'F-ANA at 4 7 9 11 12 13`: “mean fluorescence intensity” 328 a.u.
`2'F-ANA at 3 7 10 13` — result for “mean fluorescence intensity”: 607 a.u.
`2'F-ANA at 1 2 4 5 8 10 12 13` — result for “mean fluorescence intensity”: 46.9 a.u.
Under “mean fluorescence intensity”, `2'F-ANA at 2 3 9 10 12 13 14` is recorded as 317 a.u.
`2'F-ANA at 1 2 3 5 6 7 8 9 11 12 14 15` — result for “mean fluorescence intensity”: 50.8 a.u.
Under “mean fluorescence intensity”, `2'F-ANA at 1 2 4 6 7 11 12 13` is recorded as 135 a.u.

Mixed results
For `PhoQ, residues 284 288 289 292 302 303 ASHLAV`, the fold induction was 4.27 (PhoP, residues 12 14 15 18 19 STWGI (Escherichia coli, UniProt P23836); Sort-seq, refers to: YFP reporter; E. coli; PhoQ-PhoP variant library, together with: 10 µM Mg2+; reference: high Mg2+ state, higher = stronger signaling).
